# Experimental data from different studies.
# Numbered parts are unrelated; each lists some results of a single study.

# Study 1
# Target: Ras GTPase-activating protein-binding protein 1, full length (G3BP1, Homo sapiens, UniProt Q13283)
# Sequence of UniProt Q13283 (whole entry, looked up): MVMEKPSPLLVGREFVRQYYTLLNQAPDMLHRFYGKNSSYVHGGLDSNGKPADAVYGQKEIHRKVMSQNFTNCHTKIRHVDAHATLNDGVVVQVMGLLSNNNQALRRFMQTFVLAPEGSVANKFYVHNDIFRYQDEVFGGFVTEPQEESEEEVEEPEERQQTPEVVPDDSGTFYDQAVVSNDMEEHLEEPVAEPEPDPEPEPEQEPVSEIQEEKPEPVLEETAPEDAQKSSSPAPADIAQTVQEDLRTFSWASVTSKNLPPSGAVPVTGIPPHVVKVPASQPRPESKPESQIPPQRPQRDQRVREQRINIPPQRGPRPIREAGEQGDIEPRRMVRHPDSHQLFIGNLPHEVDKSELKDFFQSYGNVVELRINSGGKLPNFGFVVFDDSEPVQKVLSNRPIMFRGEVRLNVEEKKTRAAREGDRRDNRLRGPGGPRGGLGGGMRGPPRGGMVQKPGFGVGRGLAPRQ
# Technique: RNA Bind-n-Seq
# Form: RNA
# Sample: in vitro
# Concentration: 200 nM
# Notes: whole 134-nt RNA, ends assumed
# With: 150 mM LiCl
# Relative to: input library
# Direction: higher = stronger binding
# All molecules: 7-deaza-guanosine replaces G
# Shared flanks, not repeated: GGGAGUUCUACAGUCCGACGAUC … UGGAAUUCUCGGGUGUCAAGG
Strand,log2 enrichment
CACAGACAACACGCACCCACACAGACACAGAGGGAAGGAGUUGGGAUGGGGACAGGGUGCACAGCAGGGCGGGGUAGGACCCCAGCCCCU,-1.08
GUCCUGUGCUACACAUCGUAUGUACCGAAUCGGGAAAGGGAAAAAAAGGGUUUUUGGGAAAGUAUUAUGUUACGCCGUUCGGAUCUGCAC,-1.04
UCAAGUCCUGUGCUACACAUCGUAUGUACCGAAUCGGGAGGGUUUGGGAAAGGGAAAGUAUUAUGUUACGCCGUUCGGAUCUGCACUUCC,0.0166
CACAGACAACACGCACCCACACAGACACAGAGGGAAGGGGUUGGGAUGGGGACAGGGUGCACCGCAGGGCGGGGUAGGACCCCAGCCCCU,0.891
UCCUGUGCUACACAUCGUAUGUACCGAAUCGGGGAGGGGUUUUUGGGGUUUUUUUGGGGAAAGUAUUAUGUUACGCCGUUCGGAUCUGCA,0.769
CUGUGCUACACAUCGUAUGUACCGAAUCGGGCCCCCCCGGGCCCCCCCGGGGCCCCCCCGGAAAGUAUUAUGUUACGCCGUUCGGAUCUG,-0.947

# Study 2
# Target: RNA binding protein fox-1 homolog 2, RRM domain, GST-SBP tag (RBFOX2, Homo sapiens, UniProt O43251-10, residues 100-194)
# Technique: RNA Bind-n-Seq
# Form: RNA
# Sample: in vitro
# Concentration: 365 nM
# Notes: natural RNA segment, single round, ends assumed
# Relative to: no-protein control
# Direction: higher = stronger binding
# Shared flanks, not repeated: GGGAGUUCUACAGUCCGACGAUC … UGGAAUUCUCGGGUGCCAA
Strand,RBNS enrichment (R)
AAUAUUAGGAUUCUGUUUUCUACAUUGCAAGCACAGGCACCCAUAGUACACUUUUGUUGAAGUUACAAAACCAGAAUGAGUAUGGCAAGUUCCAAGGGUCCCCAGUGCUU,1.2
AAGAAGUUAACAUGAACUCUUGAAGUCACACCAGGGCAACUCUUGGAAGAAAUAUAUUUGCAUAUUGAAAAGCACAGAGGAUUUCUUUAGUGUCAUUGCCGAUUUUGGCU,0.594
AUUGUUUACUGGUUAUCUCUAUUUAAGGAAAAAAAAUAAAAUAAAACAUUUUGGAUUUUCAUAUGUGUCUGAUAAGUGGUUGUAUAGUCGUUUGGCGCUGUUGUAUGGUG,1.06
AUCCUCACUUUGGCAGUGCUUCCUCUCCUGUCAAUUCCAGGCUCUUUCCAUAACCACAAGCCUGAGGCUGCAGCCUUUUAUUUAUGUUUUCCCUUUGGCUGUGACUGGGU,0.882
UCUAAACAGCCUUUGAGGGUUUUACCCCCUGUGUCUCUUCCCUCCCCAUUGCCUAUUUGCACCCUAUGCAUGUGGUCAUAUGUAAGCUGGAUCAUCUCCACAGCUGUGAC,5.95
CACAUACUGAUACCCUGUCUCUCAAAGGGAGAAAAAUUACUUAGGUAUGUCAGCACUUUUGUCCUGUAACUGUAGAUCUGUCUCAAUUGAAGUUAACUCACUAUAUUCGG,0.806
CUACCUCUGAGAAAGAGGAAAAUGUAAUUAUUCACAGAGUUUCUCAAAAUGGCAUCUUUCCUCCCAAACUGGGAGCCAAAUUCUGCAGAAAUCAUGGACAGUAAAUGGUG,0.431
UUUGGUAUUAAUUUGACUGUGCAUGACAGCGGCAAUCUUUUCUUUGGUCAAAGUUUUCUGUUUAUUUUGCUUGUCAUAUUCGAUGUACUUUAAGGUGUCUUUAUGAAGUU,3.15

# Study 3
# Target: Histone acetyltransferase KAT6A, winged helix 2, GST fusion (KAT6A, Homo sapiens, UniProt Q92794, residues 85-181)
# Technique: protein binding microarray
# Form: double-stranded DNA, one strand shown
# Sample: in vitro
# Concentration: not given
# Notes: 8-mer, flanks averaged, mean of 2 arrays, mostly near background
# Relative to: not given
# Direction: higher = stronger binding
# Residues (chain): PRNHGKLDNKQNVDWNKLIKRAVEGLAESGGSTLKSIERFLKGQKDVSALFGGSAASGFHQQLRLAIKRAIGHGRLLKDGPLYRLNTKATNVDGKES
Strand,E-score
ATCTACCC,-0.0578
CTTACTTC,0.0269
ACTGCGTC,0.0568
CTCTCATA,-0.0794
GCTTCTAC,0.0472

# Single results of other studies
Substance,target,assay,system,setting,scale,endpoint,result
"PhoQ, residues 284 288 289 292 302 303 SCEHLI","PhoP, residues 12 14 15 18 19 SEGLL (Escherichia coli, UniProt P23836)","Sort-seq, item: YFP reporter",E. coli,"PhoQ-PhoP variant library, with: 10 µM Mg2+","relative to: high Mg2+ state, higher = stronger signaling",fold induction,13.4

# Excerpt of the above (study 3):
Strand,E-score
ATCTACCC,-0.0578
